Measurements gathered from unrelated publications.
Parts stem from different laboratories: compare values within a part only.

Series 1 — technique: protein binding microarray; molecule type: double-stranded DNA, one strand shown; matrix: in vitro; tested at: not given; baseline: not given; reading: higher = stronger binding
Target: Histone acetyltransferase KAT6A, winged helix 2, GST fusion (KAT6A, Homo sapiens, UniProt Q92794, residues 85-181)
Setting: 8-mer, flanks averaged, mean of 2 arrays, mostly near background
Residues (chain): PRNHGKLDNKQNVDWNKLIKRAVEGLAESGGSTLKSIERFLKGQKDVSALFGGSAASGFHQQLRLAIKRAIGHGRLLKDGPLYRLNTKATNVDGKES
| Oligonucleotide | E-score |
| --- | --- |
| ATCGTTTG | 0.0727 |
| CCTATACG | -0.143 |
| CAAATAGA | -0.0423 |
| ACGGAGGG | 0.053 |
| CGATATCA | 0.0659 |
| ATTCAACA | 0.0208 |
| TCGCACAA | 0.0324 |
| CAAGACGG | 0.0451 |
| ATGCGAAG | 0.0441 |
| GCTTCTGA | 0.0859 |
| ACTACGCT | -0.221 |
| GAACAACA | 0.0233 |
| ATGGCATA | 0.0482 |
| ACAGACTA | -0.134 |
| CCATTTCG | -0.0891 |
| ATCCTGCG | 0.174 |
| AATTACAT | 0.153 |
| ACCGAGCC | 0.0242 |
| GGTGTAAA | -0.168 |
| CTGGAGTC | -0.043 |
| ACAGGTGG | -0.0366 |
| GCCGGAAC | 0.18 |
| AGGGCCTA | -0.0679 |
| CACCAGGC | 0.2 |
| CTAACGCA | 0.0415 |

Series 2 — technique: RNA Bind-n-Seq; molecule type: RNA; matrix: in vitro; tested at: not given; baseline: input RNA pool; reading: higher = stronger binding
Target: RING finger protein unkempt homolog, zinc fingers 1-6, GST-SBP tag (UNK, Homo sapiens, UniProt Q9C0B0, residues 30-357)
Sequence of UniProt Q9C0B0 (30-357, looked up): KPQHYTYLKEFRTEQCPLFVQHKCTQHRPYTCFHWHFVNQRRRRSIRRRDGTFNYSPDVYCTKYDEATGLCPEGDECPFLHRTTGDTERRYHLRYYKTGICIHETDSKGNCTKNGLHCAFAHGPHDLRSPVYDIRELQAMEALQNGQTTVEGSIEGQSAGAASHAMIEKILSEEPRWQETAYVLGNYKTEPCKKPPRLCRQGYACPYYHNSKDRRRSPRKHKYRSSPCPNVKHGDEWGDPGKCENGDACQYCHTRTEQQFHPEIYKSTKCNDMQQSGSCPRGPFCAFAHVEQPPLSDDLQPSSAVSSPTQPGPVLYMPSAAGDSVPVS
Setting: RNA with constant flanks, human and mouse sites, ends assumed
Constant ends, left off below: GGGAGUUCUACAGUCCGACGAUC … CAACAGAGGAUUGAGCAUCA
| Oligonucleotide | bound/input enrichment |
| --- | --- |
| ACCCAACCAGCAGAAAACCGGUUGCUGUGGUUCCACCAAAAUAUGGAACUUGAUUUUGGACAUUUUGACGAACGAGACAAAGCAUCUAGAAAUAUGAGAGGGUCACGGAUGAAUGGACUU | 0.664 ratio |
| GCUAUGAAAAGGGGAGAGCCUGCCAUCUACAGGCCACUAGAUCCAAAGCCAUUCCCAAAUUAUAGAGCUAACUACAACUUCCGGGGCAUGUACAAUCAGAGGUAUCAUUGCCCAAUGCCC | 0.315 ratio |
| GGGGGGGGUGUGCCUGCUGUACUUGACUGAAGUGUAAAGCUUUGGUAAGGAUUUGGCCUCUAGCAGUCUUAGGUUUCUGCAUUUACCACGGUGACACAGCCCCUACAGGGCUGACUAGGA | 0.642 ratio |
| CGGUGGCGUUUGGAGCAGACGCGAAACUGGAUGGCUUCUACAGGGAGCCAGGCCUCUGAUAAAAACAAGAUUUUUGGAUUCUUCAAUGAUGGCGAACCCCCCACCAAAAAGCCCAGGAAG | 0.274 ratio |
| UGAGAUGGCACAGCAUAGGAGACUGAAGUGUGAAAGAAGUCAUAAGAAGGCUUCCUGAGGACUUUGAGGCAACAGAGUGUUGCGUUAAGACCUGACCAUGAGGCAUCAGGCCAUGCCUGC | 0.103 ratio |
| GAGUUCCGUUCUGGAAAGGCACCCAUCCUUAUUGCUACAGAUGUAGCCUCCCGUGGGCUAGAUGUGGAAGAUGUCAAGUUUGUGAUCAACUAUGACUAUCCAAACAGCUCAGAGGAUUAU | 0.118 ratio |
| AGACGAAGCUGCAGUGACCUGCUGCACCGGAUGAAGGAGCUCUGCAGAUACAUGAACAGCUUUGACAGCGAAGCUCACAACAACUAUAAAAACCAAGUGCUCUACUCCACGAUGCUGGUG | 0.104 ratio |
| CUUUGAUGUCUUGCAUAUAUUGCUGGUGGUAUUUAUGUGAAUUUUGUACAGUGAUUUAAUCUUGUAGUUUAUCAUUUGUACAAUUGCACUAUCUAAAUGUACUCCCUUCUGAAUGUUAAU | 0.125 ratio |
| GAUGCCCCUCUGGGAAGUUCUUAUAUGUGCAACAAAGAGCAGGUGCUUUCUGUGUCUAGAGCGUUUCAGAUCAACACCUUUAACCUAAAGGUGCAACCUUUUAAUGUGACAAAAGGACAG | 0.254 ratio |
| UAUGAAGUGUACAGCUCCUCAGCAGGCCCUGCGGUCAGACACAAGUGCCUUAGAGCAAUUCUUAGGAUAAUUUAUUUUGCUGAUGCUGAACUUCUGAAGGAUGUUCUGAAAAAUCAUGCU | 17.8 ratio |
| AGGAGUUCAUAUGAAGACAAAAAUUUGUUGAAGAAAAAUAAGGAUGAGUCCUCAGUUUCCAUUUCUCACACAAAAUGUUCCUUGUUAGGAGACAUCAGUGAUGGGAAAAACUUAGUACCU | 0.384 ratio |

Series 3 — technique: RNA Bind-n-Seq; molecule type: RNA; matrix: in vitro; tested at: 200 nM; setting: whole 134-nt RNA, ends assumed; with: 150 mM LiCl; baseline: input library; reading: higher = stronger binding; all molecules: 7-deaza-guanosine replaces G
Target: Fragile X messenger ribonucleoprotein 1, C-terminal low-complexity region (Fmr1, Mus musculus, UniProt P35922)
Constant ends, left off below: GGGAGUUCUACAGUCCGACGAUC … UGGAAUUCUCGGGUGUCAAGG
| Oligonucleotide | log2 enrichment |
| --- | --- |
| UGGGAGGUGGAUUUUGUUUAUUUUUUUAGCUCAUUUCCAGGGGUGGGAAUUUUUUUUUAAUAUGUGUCAUGAAUAAAGUUGUUAUUGAAA | 0.0198 |
| UGUGCUACACAUCGUAUGUACCGAAUCGGGAAAAAAAGGGGAAAAAAAGGGAAAAAAAGGGGAAAGUAUUAUGUUACGCCGUUCGGAUCU | 0.605 |
| GAGGAGACUCUGCGCAGAGCACUUUGGGUCCGGAGGGCGAGACUCCGGCGGAAGCAUUCCCGGGCGGGUGACCCAGCACGGUCCCUCUUG | -1.79 |
| AAGUCCUGUGCUACACAUCGUAUGUACCGAAUCGGAAAAGGGAAAAGGAAAAGGGGAAAGUAUUAUGUUACGCCGUUCGGAUCUGCACUU | -0.354 |
| GUCCUGUGCUACACAUCGUAUGUACCGAAUCGGGAGGGAAAAAAAGGGUUUUUUUGGGAAAGUAUUAUGUUACGCCGUUCGGAUCUGCAC | -1.21 |
| GUCCUGUGCUACACAUCGUAUGUACCGAAUCGGGAAAGGGAAAAAGGGAAAAAAAGGGAAAGUAUUAUGUUACGCCGUUCGGAUCUGCAC | 0.436 |
| GUCCUGUGCUACACAUCGUAUGUACCGAAUCAAACCCCCCCAAACCCAAAUUUUUAAAAAAGUAUUAUGUUACGCCGUUCGGAUCUGCAC | 1.29 |
| AGUCCUGUGCUACACAUCGUAUGUACCGAAUCGGGUUUUUUUGGGUGGGAAAAAGGGAAAGUAUUAUGUUACGCCGUUCGGAUCUGCACU | -1.73 |
| UCCUGUGCUACACAUCGUAUGUACCGAAUCAAACCCCCCCAAACCCCCAAACCCCCAAAAAAGUAUUAUGUUACGCCGUUCGGAUCUGCA | 0.709 |
| GCCCUGUAAUCGUGGAGAUCCCGCACUUUGCCUCCCAUGGCCGUGGAGACCGCGAGCUCGUGGUUCUGAGGAGCGAAAACGGCUCCGUGU | -1.94 |
| ACCAUGCAGGUGGGCAUCUUUGGGAAGUGGGAAAAGGGGGGGAUAGGGAGGGGGGUAACACUUUGGGAACAGGUGGUCCCAGGUCGUUUC | 1.52 |

Series 4 — technique: RNA Bind-n-Seq; molecule type: RNA; matrix: in vitro; tested at: 365 nM; baseline: no-protein control; reading: higher = stronger binding
Target: RNA binding protein fox-1 homolog 2, RRM domain, GST-SBP tag (RBFOX2, Homo sapiens, UniProt O43251-10, residues 100-194)
Setting: natural RNA segment, single round, ends assumed
Constant ends, left off below: GGGAGUUCUACAGUCCGACGAUC … UGGAAUUCUCGGGUGCCAA
Target sequence (chain): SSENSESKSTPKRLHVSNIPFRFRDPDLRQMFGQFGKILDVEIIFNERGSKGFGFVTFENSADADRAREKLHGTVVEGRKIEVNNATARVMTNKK
| Oligonucleotide | RBNS enrichment (R) |
| --- | --- |
| AAUCUAUUCCUGCCACCACUGGGCAAACAGAAGAAUUUUUCUGUCUUUGGAGAGUAUUUUAGAAACUCCAAUGAAAGACACUGUUUCUCCUGUUGGCUCACAGGGCUGAA | 0.409 |
| UCCUUGGAACUGGGUGUUGGUGUCCAUGGAACUUCCUCUCUGUAUCUCAGGUCAGUAGGCGCAGAAACGCCUCAUGAUGAAGAUUCUUGAGCCCCAUUUCCAAGACCCCU | 0.266 |
| AUGUUCUGUAGUGUGUUUACCCUCAUUAUGAAGCAAAUUAGCAAUGCAUUGAUUAAUGUUCACUUAUACAUUCCUGUACAGAAAUUAUGAUUUUUGUGAUUAUAGUAAUA | 0.331 |
| GGAGGGUUAGGCAUGGGUGACACCCCAGAAGGGAACUUUCAUCUUUUCCCUUCCAAAAAUUGUCAACUGACUGAGGACAAAGAGAAAGCACCUCCCAGAAAGCUGUGAGC | 0.486 |
| GGGGUGGGAUUGAAGGAAACCCUCUCCUCUCCCCUUCCCUUCUCUCUCCUGUCCAUGGGAAGCUUUUCCCCCUCUGCAGGGCUCCCUCAGCUGGACCAUCGUCCCUGCUU | 0.334 |
| CAGUCCUCUGUAGUCCAGAGAGGUGAGAUUAGAUCUUCUUGGUUCCCUGUGAGGUUUCAGGCACUAAAACUCUAUGUGGGGAAGGGAGGGGUUACUCCUCCUCCAAUGGG | 0.434 |
| AAUAGCAUUUUGUAUGUUAGAGACCAUUCUUUUCUAGUCCUUCCAAACAUUCCUGUGUCACUUAAGAAUGUUAGUAGAGGUCGCUUCUUUGGAAAUUGAGGACUUUUUUU | 0.274 |
| CCGGAGGCCCCACGAGCAGGCCCCAGCAGUCACCGGCUCUGGUCUUGGGCCGGCCCCGGUGCCCACCUGUACCCCCACCUCGCCCAUUUGGCCGCGUGCACUGAGUGUCA | 0.414 |
| UUGUAUAAAUUUGUCAUGUUGAACAGCAUUUUAGCAUGGUAAGUUCCCUUAGCUAUAUGAAUUUUGGCAUGUUUCAGAGAGAUCAGUAAAUAAAAUAUUAGAUAAAAUAU | 1.32 |
| UGAAUGCUGGGCCCCUGCUCAAGUCUACCCUGAUCACCUCAGGGCAUAAAGCAUGUUUCAUUCUCUGGCCCGACAGUGUCUUUGCUCAGGGAGGGGAAGUGGAAGGGAAG | 1.73 |
| GGGAAGAAGUUGUAUCUUAAGUGCCACCUUCAAGUUUCUUAGUGGUGCCUGGUGCAUUCCGAGGCUACAUCCAGGCUCAUGGAAGGAGUGUAGUAUUCAUUUAGCCAUGU | 0.318 |
| AGCCUUUUGCAUGCGGGUAUUAUAUAAUAAUGAAUGGGUGGCUCCUAGUAGCAUGCAACCCAUGACUGUUUACUUCCCUAAAAGGGUUAGGUCUGUGUCCUGCACAGUGU | 41.8 |

A few entries again (series 1):
| Oligonucleotide | E-score |
| --- | --- |
| GCTTCTGA | 0.0859 |
| ATGCGAAG | 0.0441 |
| GAACAACA | 0.0233 |
| ACAGACTA | -0.134 |
| ACCGAGCC | 0.0242 |
| ACGGAGGG | 0.053 |
| CGATATCA | 0.0659 |
